Measured values gathered from unrelated publications.
A part holds a random share of what one study measured. Changes are numbered by the printed parent chain.
UniProt P61077, sequence (whole entry, looked up): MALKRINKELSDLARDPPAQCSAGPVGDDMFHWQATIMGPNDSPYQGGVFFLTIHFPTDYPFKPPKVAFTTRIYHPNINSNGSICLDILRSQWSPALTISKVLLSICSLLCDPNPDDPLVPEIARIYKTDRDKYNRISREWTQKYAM
UniProt Q96B02, sequence (whole entry, looked up): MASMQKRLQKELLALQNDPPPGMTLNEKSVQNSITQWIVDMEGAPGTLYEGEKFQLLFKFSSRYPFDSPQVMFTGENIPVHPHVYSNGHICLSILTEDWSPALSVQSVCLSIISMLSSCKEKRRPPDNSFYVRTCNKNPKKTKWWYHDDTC
UniProt P49459, sequence (whole entry, looked up): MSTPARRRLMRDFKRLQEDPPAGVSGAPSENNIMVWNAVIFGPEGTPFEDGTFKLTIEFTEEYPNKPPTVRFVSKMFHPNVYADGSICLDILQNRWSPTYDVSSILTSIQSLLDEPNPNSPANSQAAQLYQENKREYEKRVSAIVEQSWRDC

Series 1
Sequence: B1 (MDM2 RING domain)
Technique: yeast two-hybrid
Sample: yeast
Notes: mostly zero background
Reference: not given
Direction: higher = stronger interaction
Endpoint: lacZ reporter activity
B1: MDM2 RING domain (UniProt Q00987); chain TQDKEESVESSLPLNAIEPCVICQGRPKNGCIVHGKTGHLMACFTCAKKLKKRNKPCPVCRQPIQMIVLTYFP
target = UBE2D3 UBC core domain (UniProt P61077); result = 0
target = UBE2A UBC core domain (UniProt P49459); result = 0
target = UBE2W UBC core domain (UniProt Q96B02); result = 0

Series 2
Target: CCNA1, cyclin fold, Cln2 fusion (human)
Technique: yeast growth competition, sequencing
Sample: yeast
Notes: strong parent motif
Reference: not given
Direction: higher = stronger binding
Endpoint: normalised enrichment score
Starting sequence: viral docking peptide; YKVKRRLVFGADD; partner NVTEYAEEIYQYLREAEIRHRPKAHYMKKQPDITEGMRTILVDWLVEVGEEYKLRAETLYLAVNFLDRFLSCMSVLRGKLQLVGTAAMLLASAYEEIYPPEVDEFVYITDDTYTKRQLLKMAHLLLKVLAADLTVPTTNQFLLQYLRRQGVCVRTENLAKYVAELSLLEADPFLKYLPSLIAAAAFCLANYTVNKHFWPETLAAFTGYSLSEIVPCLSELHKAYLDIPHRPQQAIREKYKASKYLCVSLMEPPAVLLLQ
Substitution = YIVKRRLVFGADD [K2I]; result = 1.17
Substitution = YKVKRELVFGADD [R6E]; result = 0.836
Substitution = YAVKRRLVFGADD [K2A]; result = 0.803
Substitution = YKVKRRLVFSADD [G10S]; result = 1.07
Substitution = YKVKRRLHFGADD [V8H]; result = 1.27
Substitution = YKVKRRQVFGADD [L7Q]; result = 0.0412
Substitution = YKVKRRLVFIADD [G10I]; result = 1.04
Substitution = YKVKRRLRFGADD [V8R]; result = 0.638
Substitution = YSVKRRLVFGADD [K2S]; result = 0.573

Series 3
Target: HLA class I histocompatibility antigen, A alpha chain, allele A*25:01 (Homo sapiens, UniProt P04439)
Observed: peptide-MHC binding
Molecule type: peptide
Tested at: concentration not given
Endpoint: binding
Sequence = NPLEIYQEI; result = inactive
Sequence = KVSVGSYFC; result = inactive
Sequence = QTDNDIWFW; result = inactive
Sequence = CERYGFPAS; result = inactive
Sequence = LVGNTLTTC; result = inactive
Sequence = AILAGEHKC; result = inactive
Sequence = LLFRMILNY; result = inactive
Sequence = SPVMGVIGF; result = inactive

Single results of other studies
Technique: cross-linking MS
Sample: cell fractions
Molecule = NUP155 (Homo sapiens, UniProt O75694); partner = NUP58 (Homo sapiens, UniProt Q9BVL2); added = DMTMM; cross-linked residues = P2 to E354
Molecule = SNRNP70 (Homo sapiens, UniProt P08621); partner = SRSF1 (Homo sapiens, UniProt Q07955); added = DSSO; cross-linked residues = K162 to K179
Molecule = GLDC (Homo sapiens, UniProt P23378); partner = ZC3H3 (Homo sapiens, UniProt Q8IXZ2); added = DSSO; cross-linked residues = K636 to S232
Molecule = JUP (Homo sapiens, UniProt P14923); partner = DSP (Homo sapiens, UniProt P15924); added = DMTMM; cross-linked residues = E154 to K444

A few entries again (series 1):
target = UBE2D3 UBC core domain (UniProt P61077); result = 0
target = UBE2A UBC core domain (UniProt P49459); result = 0
target = UBE2W UBC core domain (UniProt Q96B02); result = 0
